Measurements of several laboratories.
Protocols differ between the studies behind these lines. ± gives the spread as reported.
Lysophospholipase-like protein 1: Lysophospholipase-like protein 1 (Mus musculus, UniProt Q3UFF7)
Melanocortin receptor 5: Melanocortin receptor 5 (Mus musculus, UniProt P41149)
LDHA: L-lactate dehydrogenase A chain (LDHA, Homo sapiens, UniProt P00338)
KCNT1: Potassium channel subfamily T member 1 (KCNT1, Homo sapiens, UniProt Q5JUK3)
GLP1R: Glucagon-like peptide 1 receptor (GLP1R, Homo sapiens, UniProt P43220)
FPR2: N-formyl peptide receptor 2 (FPR2, Homo sapiens, UniProt P25090)
GRM4: Metabotropic glutamate receptor 4 (GRM4, Homo sapiens, UniProt Q14833)
Taar1: Trace amine-associated receptor 1 (Taar1, Mus musculus, UniProt Q923Y8)

Amino acid sequences for entries named in this document (tags omitted). Residues count along the entry.
UniProt Q3UFF7, whole entry: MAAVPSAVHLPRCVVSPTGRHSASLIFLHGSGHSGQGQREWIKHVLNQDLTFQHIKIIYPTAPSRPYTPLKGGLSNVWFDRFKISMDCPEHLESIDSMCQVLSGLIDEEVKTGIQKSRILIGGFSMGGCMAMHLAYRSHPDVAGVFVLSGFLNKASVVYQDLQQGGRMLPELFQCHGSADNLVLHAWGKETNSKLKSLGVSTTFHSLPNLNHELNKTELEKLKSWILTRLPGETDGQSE
UniProt P41149, whole entry: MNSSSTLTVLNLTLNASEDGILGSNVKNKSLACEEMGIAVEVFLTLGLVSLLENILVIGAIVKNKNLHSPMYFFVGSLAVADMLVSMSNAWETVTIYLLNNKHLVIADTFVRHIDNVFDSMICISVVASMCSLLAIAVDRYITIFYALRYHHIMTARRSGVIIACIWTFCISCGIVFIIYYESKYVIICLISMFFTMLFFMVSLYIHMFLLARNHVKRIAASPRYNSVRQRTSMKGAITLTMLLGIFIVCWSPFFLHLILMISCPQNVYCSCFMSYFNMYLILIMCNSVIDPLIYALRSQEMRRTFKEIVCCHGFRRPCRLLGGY
UniProt Q5JUK3, whole entry: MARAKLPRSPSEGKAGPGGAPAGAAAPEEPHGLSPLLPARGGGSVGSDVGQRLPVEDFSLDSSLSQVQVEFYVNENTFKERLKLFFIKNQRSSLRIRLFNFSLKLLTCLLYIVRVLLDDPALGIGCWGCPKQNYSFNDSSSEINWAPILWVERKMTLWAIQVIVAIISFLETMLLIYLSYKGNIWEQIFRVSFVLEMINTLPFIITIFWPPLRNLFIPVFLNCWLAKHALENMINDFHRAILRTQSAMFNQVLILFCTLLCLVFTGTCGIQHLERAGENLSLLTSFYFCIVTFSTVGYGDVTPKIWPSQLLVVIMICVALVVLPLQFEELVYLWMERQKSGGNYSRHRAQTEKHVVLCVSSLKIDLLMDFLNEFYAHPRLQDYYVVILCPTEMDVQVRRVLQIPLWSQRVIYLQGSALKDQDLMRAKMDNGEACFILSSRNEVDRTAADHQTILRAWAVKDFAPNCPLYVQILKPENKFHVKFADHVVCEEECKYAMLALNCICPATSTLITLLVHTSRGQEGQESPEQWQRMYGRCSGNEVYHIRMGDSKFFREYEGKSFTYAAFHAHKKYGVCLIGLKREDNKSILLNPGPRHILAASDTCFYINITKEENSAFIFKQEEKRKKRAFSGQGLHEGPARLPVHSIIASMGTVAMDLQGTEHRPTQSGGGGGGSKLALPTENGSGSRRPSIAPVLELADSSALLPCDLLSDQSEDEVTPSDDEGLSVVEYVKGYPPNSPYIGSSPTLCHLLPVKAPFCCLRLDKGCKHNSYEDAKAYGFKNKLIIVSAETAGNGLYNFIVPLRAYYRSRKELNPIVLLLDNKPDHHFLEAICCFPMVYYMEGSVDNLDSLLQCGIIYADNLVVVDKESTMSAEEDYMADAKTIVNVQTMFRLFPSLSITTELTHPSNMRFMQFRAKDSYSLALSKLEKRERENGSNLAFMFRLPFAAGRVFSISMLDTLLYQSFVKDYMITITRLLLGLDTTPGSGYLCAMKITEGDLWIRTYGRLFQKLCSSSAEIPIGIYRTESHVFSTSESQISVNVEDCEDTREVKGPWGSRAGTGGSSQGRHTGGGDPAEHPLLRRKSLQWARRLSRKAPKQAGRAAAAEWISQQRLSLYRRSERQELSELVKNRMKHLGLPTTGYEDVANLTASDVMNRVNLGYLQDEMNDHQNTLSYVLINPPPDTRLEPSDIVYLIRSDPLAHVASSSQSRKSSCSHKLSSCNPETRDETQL
UniProt P43220, whole entry, looked up: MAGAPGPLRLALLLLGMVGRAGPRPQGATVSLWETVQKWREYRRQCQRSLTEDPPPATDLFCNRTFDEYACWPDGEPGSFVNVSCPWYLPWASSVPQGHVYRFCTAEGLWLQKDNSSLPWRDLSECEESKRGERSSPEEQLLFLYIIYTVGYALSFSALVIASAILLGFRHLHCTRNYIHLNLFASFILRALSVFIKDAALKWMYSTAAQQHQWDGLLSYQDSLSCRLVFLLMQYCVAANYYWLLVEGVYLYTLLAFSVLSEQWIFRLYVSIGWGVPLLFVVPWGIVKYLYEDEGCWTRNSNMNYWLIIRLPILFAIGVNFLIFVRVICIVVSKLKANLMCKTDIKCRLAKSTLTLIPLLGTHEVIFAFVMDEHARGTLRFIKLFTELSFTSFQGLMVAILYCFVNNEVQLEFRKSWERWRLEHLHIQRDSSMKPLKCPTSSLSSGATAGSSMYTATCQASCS
UniProt P43220, 24-463 limits assumed: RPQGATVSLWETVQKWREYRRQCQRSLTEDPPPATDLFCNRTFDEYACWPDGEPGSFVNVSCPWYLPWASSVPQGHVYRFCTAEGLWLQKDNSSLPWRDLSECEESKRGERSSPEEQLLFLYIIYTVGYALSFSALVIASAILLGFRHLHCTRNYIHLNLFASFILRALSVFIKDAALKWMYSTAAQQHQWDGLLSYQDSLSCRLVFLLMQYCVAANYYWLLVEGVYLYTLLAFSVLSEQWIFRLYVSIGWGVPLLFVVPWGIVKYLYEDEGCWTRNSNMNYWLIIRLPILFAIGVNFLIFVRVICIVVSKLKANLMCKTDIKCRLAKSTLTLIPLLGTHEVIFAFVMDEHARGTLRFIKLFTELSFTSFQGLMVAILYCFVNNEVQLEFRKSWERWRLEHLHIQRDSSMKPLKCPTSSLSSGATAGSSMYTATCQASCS
UniProt Q14833, 33-912 limits assumed: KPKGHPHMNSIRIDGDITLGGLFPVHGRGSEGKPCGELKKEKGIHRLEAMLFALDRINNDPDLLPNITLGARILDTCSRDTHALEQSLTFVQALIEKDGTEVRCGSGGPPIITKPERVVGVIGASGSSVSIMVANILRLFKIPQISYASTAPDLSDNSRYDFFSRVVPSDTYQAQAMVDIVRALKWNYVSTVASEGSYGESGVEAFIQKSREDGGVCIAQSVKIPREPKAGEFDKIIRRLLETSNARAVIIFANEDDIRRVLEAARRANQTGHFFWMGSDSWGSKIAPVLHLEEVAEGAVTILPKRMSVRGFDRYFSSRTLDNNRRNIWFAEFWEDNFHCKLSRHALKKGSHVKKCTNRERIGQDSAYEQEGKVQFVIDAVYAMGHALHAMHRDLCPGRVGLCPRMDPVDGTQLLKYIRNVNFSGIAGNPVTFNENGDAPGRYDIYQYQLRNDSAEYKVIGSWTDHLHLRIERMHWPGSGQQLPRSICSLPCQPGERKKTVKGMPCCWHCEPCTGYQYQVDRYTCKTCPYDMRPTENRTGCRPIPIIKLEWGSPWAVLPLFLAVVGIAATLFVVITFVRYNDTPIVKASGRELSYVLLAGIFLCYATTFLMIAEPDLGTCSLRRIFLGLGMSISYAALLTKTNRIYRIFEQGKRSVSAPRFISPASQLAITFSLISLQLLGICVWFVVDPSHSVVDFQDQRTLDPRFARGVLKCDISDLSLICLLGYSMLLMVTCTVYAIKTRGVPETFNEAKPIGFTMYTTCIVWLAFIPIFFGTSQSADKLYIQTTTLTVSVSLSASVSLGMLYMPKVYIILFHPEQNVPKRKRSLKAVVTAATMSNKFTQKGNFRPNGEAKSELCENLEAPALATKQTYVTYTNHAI
UniProt Q14831, whole entry, looked up: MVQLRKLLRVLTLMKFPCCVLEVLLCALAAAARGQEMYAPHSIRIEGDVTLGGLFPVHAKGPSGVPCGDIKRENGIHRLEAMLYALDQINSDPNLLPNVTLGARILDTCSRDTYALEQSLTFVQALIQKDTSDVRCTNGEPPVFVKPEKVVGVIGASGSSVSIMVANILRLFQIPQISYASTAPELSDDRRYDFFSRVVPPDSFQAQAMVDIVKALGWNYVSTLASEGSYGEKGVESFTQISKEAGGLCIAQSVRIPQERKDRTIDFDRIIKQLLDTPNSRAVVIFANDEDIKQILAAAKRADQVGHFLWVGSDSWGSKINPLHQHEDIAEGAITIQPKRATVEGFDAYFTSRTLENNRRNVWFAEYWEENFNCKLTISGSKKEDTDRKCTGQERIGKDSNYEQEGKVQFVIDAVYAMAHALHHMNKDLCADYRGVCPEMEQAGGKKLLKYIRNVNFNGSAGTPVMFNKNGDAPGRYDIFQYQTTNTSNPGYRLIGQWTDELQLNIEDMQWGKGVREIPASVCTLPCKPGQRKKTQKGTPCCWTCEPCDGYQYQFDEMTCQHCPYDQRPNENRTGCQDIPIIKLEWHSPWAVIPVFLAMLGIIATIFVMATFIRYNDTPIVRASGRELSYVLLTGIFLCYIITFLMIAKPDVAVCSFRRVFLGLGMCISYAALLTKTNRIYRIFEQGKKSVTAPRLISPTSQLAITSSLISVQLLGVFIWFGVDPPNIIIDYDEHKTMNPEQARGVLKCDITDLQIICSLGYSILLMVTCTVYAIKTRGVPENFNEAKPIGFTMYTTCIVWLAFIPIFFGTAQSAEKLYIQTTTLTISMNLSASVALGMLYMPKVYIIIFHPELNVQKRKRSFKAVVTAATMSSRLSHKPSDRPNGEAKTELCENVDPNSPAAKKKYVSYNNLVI
UniProt Q02750, whole entry S218A/S222A: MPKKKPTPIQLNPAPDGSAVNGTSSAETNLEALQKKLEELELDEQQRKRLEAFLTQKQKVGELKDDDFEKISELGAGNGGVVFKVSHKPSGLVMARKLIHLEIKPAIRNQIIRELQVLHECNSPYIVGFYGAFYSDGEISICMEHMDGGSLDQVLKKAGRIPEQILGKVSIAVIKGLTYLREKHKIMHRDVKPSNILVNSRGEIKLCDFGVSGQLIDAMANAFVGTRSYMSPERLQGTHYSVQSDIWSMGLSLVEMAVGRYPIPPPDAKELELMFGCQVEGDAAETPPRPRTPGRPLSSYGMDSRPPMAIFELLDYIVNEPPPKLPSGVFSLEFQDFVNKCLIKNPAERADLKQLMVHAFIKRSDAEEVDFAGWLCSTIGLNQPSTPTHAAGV
UniProt Q01959, whole entry: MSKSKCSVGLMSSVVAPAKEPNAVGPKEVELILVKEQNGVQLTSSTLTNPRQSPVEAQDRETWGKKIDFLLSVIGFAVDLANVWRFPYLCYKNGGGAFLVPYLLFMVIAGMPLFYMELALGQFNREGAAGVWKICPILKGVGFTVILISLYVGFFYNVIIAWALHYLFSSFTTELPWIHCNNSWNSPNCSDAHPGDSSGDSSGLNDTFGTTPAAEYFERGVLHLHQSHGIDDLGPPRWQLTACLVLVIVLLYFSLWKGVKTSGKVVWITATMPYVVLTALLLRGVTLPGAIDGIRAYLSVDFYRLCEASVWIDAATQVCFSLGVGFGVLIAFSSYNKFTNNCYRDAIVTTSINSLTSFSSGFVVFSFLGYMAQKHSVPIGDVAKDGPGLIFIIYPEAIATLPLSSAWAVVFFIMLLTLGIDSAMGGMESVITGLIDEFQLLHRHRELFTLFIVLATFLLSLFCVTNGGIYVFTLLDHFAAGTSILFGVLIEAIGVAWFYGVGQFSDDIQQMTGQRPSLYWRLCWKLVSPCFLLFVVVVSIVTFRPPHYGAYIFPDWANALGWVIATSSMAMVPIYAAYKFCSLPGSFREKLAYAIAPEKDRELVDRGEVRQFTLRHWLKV
UniProt Q16281, whole entry: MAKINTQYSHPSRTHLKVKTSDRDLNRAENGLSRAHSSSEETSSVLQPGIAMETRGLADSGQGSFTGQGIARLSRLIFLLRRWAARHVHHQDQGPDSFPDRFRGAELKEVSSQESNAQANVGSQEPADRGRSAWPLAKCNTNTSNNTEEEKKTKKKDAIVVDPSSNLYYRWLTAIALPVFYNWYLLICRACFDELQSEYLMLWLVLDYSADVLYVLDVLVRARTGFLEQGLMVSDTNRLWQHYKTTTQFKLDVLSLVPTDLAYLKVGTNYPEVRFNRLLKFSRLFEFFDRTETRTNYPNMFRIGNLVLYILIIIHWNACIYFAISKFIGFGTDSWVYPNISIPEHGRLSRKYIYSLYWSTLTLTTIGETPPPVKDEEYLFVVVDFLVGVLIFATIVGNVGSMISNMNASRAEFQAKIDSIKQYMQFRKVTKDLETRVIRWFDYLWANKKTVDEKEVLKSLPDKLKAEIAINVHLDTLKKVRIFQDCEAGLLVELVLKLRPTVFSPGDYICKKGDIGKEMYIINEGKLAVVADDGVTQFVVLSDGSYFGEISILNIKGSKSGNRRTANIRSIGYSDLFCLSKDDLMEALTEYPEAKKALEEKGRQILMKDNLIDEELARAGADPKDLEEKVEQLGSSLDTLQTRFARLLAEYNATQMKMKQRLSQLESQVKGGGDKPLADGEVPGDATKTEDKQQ
UniProt P21462, whole entry: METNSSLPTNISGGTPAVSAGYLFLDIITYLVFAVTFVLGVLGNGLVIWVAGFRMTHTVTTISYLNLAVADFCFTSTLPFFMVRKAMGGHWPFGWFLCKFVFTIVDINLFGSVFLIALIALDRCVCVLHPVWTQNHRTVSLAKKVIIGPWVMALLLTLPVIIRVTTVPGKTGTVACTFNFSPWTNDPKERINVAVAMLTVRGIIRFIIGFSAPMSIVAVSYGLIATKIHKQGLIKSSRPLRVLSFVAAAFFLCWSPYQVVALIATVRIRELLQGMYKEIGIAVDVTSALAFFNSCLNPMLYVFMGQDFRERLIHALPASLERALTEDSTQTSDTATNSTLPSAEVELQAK

Structure (SMILES) | target | assay | system | setting | EC50 [nM]
NCC(c1ccccc1)c1cccc(Oc2ccccc2)c1 (stereo not drawn) | Trace amine-associated receptor 1 (Rattus norvegicus, UniProt Q923Y9, N287Y) | cAMP, agonist |  | rat receptor mutant | ~10000
O=C(NC1Cc2ccccc2C1)C(NCC1CC1)c1ccccc1 (stereo not drawn) | GRM7 (Homo sapiens, UniProt Q14831) | cellular impedance, agonist, CellKey impedance | CHO expressing mGluR7 | single addition | 90
Nc1nc(SCc2ccc(Cl)cc2)nn1S(=O)(=O)c1cccc([N+](=O)[O-])c1 | Lysophospholipase-like protein 1 | enzyme activity, activator, gel-based ABPP, FP-rhodamine | purified protein |  | 170
NCCCCNC(=O)[C@H](Cc1ccc(Cl)cc1)NC(=O)N1CCc2ccccc2C1 | Melanocortin receptor 5 | reporter gene, agonist, β-galactosidase reporter | HEK293 stably expressing Melanocortin receptor 5 |  | > 100000
CC(C(=O)Nc1ccc(-c2ccccc2)cn1)n1nnc(-c2ccncc2)c1-c1ccccc1 (stereo not drawn) | Protein-serine O-palmitoleoyltransferase porcupine (Mus musculus, UniProt Q9JJJ7) | Wnt signalling reporter, inhibitor | L-Wnt-STF |  | 0.2
NS(=O)(=O)c1ccc(Cc2c(-c3ccc(F)c(C#CC4CCCC4)c3)nn(-c3nc(C(=O)O)cs3)c2CC2CC2)cc1F | LDHA | thermal stabilisation, CETSA | HEK293 | 3.5 min, 71 °C | 40
CCc1ccc(NS(=O)(=O)c2cn(Cc3ccccn3)c3ncccc23)cc1 | Cystic fibrosis transmembrane conductance regulator, W1282X (CFTR, Homo sapiens, UniProt P13569) | chloride current, co-potentiator, short-circuit current | FRT expressing CFTR | added: 20 µM forskolin, 5 µM ivacaftor | 550
Cc1nc2ccc(S(=O)(=O)n3nc(NCCc4ccc(Cl)cc4)nc3N)cc2s1 | Lysophospholipase-like protein 1 | enzyme activity, activator, gel-based ABPP, FP-rhodamine | purified protein |  | > 20000
Cc1ccc2ncn(CC3CCN(S(=O)(=O)c4cccc(C(F)(F)F)c4)CC3)c2c1 | KCNT1 | thallium flux, activator | HEK293 expressing KCNT1 |  | 1700
COc1ccc(S(=O)(=O)n2nc(SCc3ccc(Cl)cc3)nc2N)cn1 | Lysophospholipase-like protein 1 | enzyme activity, activator, gel-based ABPP, FP-rhodamine | purified protein |  | 2200
CC(C)(Cn1cc(CN[C@@H]2CCc3ccccc32)nn1)c1c[nH]c2ccccc12 | GLP1R | cAMP accumulation, positive allosteric modulator, HTRF | CHO-K1 expressing GLP1R | crude reaction product, added: GLP-1(9-36) at EC20 | 1050
Cc1c(=O)n(C)c(Nc2ccc(I)cc2F)c2c(=O)n(C3CC3)c(=O)n(-c3cccc(NC(=O)CCOCCOCCNC(=O)CCC4=[N+]5C(=Cc6ccc(-c7ccc[nH]7)n6[B-]5(F)F)C=C4)c3)c12 | MAP2K1 (Homo sapiens, UniProt Q02750, S218A/S222A) | binding, NanoBRET | HEK-293T | MEK1 S218A/S222A NanoLuc fusion | 22 ± 2
Cc1nc2ccc(S(=O)(=O)n3nc(CCc4ccc(Cl)cc4)nc3N)cc2o1 | Lysophospholipase-like protein 1 | enzyme activity, activator, gel-based ABPP, FP-rhodamine | purified protein |  | 6500
CSc1cc(NC(=O)c2ccccn2)ccc1Cl | Metabotropic glutamate receptor 6 (Homo sapiens, UniProt O15303) | agonist |  |  | > 30000
CNc1nc(C#Cc2ccc(Cl)s2)nc2c1ncn2[C@H]1[C@H](O)[C@H](O)[C@]2(C(=O)OC(C)C)C[C@H]12 | SLC6A3 (Homo sapiens, UniProt Q01959) |  |  |  | 470
CC(C)(Cn1cc(-c2ccc(S(C)(=O)=O)cc2)nn1)c1c[nH]c2ccccc12 | GLP1R | cAMP accumulation, positive allosteric modulator, HTRF | CHO-K1 expressing GLP1R | crude reaction product, added: GLP-1(9-36) at EC20 | 1460
COc1ccc(C2(CNC(=O)[C@H](Cc3c[nH]c4ccccc34)NC(=O)Nc3ccc([N+](=O)[O-])cc3)CCCCC2)cc1 | FPR2 | Ca2+ mobilization, agonist | HL-60 transfected with FPR2 |  | 10400 ± 3500
CCCCCCCC(=O)OCC(COP(=O)(O)OC1C(O)C(OP(=O)(O)O)C(OP(=O)(O)O)C(OP(=O)(O)O)C1O)OC(=O)CCCCCCC (stereo not drawn) | CNGA3/CNGB3 (Homo sapiens, UniProt Q16281+Q9NQW8) | increase in cGMP K1/2, inside-out patch clamp |  | CNGA3/CNGB3 heteromer | 580

Structure (SMILES) | target | assay | system | setting | EC50 [nM]
CCCn1c(NCc2ccccc2O)nc2ccccc21 | ALDH1A1 (Homo sapiens, UniProt P00352) | enzyme activity, inhibitor, NADH absorbance 340 nm |  | pH 7.5, 25 °C, 200 µM NAD+, added: 100 µM propionaldehyde | 3700 ± 380
Cc1cccc2ncn(CC3CCN(S(=O)(=O)c4cccc(C(F)(F)F)c4)CC3)c12 | KCNT1 | thallium flux, activator | HEK293 expressing KCNT1 |  | 1300
COC(=O)[C@@]1(C)C=C(C(=O)OCc2cccc(C(=O)Nc3ccc(Nc4nccc(-c5cccnc5)n4)c(C)c3)c2)C(=O)CC1 | MAPK8 (Homo sapiens, UniProt P45983) | JNK1 binding, NanoBRET | HEK293 cells | 2 h, added: tracer K-5 | 650 ± 180
CCCC(C(=O)Nc1ccc(Br)cc1)n1nc(C)cc(Cc2cccc(OC)c2)c1=O (racemic) | FPR2 | calcium mobilization, agonist | HL-60 transfected with FPR2 |  | 3600
COc1ccc(NC(=O)CN2CCCN(S(=O)(=O)c3ccc(C(F)(F)F)cc3)CC2)c(OC)c1 | GRM4 | calcium mobilization, positive allosteric modulator | CHO cells with Gqi5 | added: glutamate EC20 | 2500 ± 500
CC(C)(Cn1cc(-c2ccc(CO)cc2)nn1)c1c[nH]c2ccccc12 | GLP1R | cAMP accumulation, positive allosteric modulator, HTRF | CHO-K1 expressing GLP1R | purified compound, added: GLP-1(9-36) at EC20 | 795 ± 250
O=C(NC1CCCCC1)C12CC1/C(=N\O)c1ccccc1O2 (stereo not drawn) | GRM4 | calcium mobilization, positive allosteric modulator | CHO hmGluR4/Gqi5 | added: glutamate EC20 | > 5000
NCCCCNC(=O)[C@H](Cc1ccc2ccccc2c1)NC(=O)N1CCc2ccccc2C1 | Melanocortin receptor 5 | reporter gene, agonist, β-galactosidase reporter | HEK293 stably expressing Melanocortin receptor 5 |  | > 100000
NS(=O)(=O)c1ccc(Cc2c(C3CCCC3)nn(-c3nc(C(=O)O)cs3)c2-c2ccccc2)cc1 | LDHA | thermal stabilisation, CETSA | HEK293 | 3.5 min, 71 °C | 19000
COc1ccc(NC(=O)CN2CCCN(S(=O)(=O)c3cc(C)c(Cl)cc3F)CC2)c(OC)c1 | GRM4 | calcium mobilization, positive allosteric modulator | CHO cells with Gqi5 | added: glutamate EC20 | 2700 ± 200
COc1ccccc1-c1cc(C(F)(F)F)nc(S(C)(=O)=O)n1 | GLP1R | cAMP accumulation, positive allosteric modulator | HEK293T overexpressing target | added: GLP-1 at EC20 | 15000 ± 11000
CC(C)(Cn1cc(CCC(=O)Nc2ccccc2)nn1)c1c[nH]c2ccccc12 | GLP1R | cAMP accumulation, positive allosteric modulator, HTRF | CHO-K1 expressing GLP1R | purified compound, added: GLP-1(9-36) at EC20 | 970 ± 190
NCC(c1ccc(O)cc1)c1ccc(O)cc1 | Taar1 | cAMP production, agonist |  |  | ≥ 10000
COc1ccc2nc(SCC(=O)Nc3ccc(SC)cc3)[nH]c2c1 | FPR1 (Homo sapiens, UniProt P21462) | calcium mobilization, agonist | HL-60 transfected with FPR1 |  | 2000
Cc1[nH]c2cc(Cl)cc(Cl)c2c1CCn1cc(COCCOCCO)nn1 | GLP1R | cAMP accumulation, positive allosteric modulator, HTRF | CHO-K1 expressing GLP1R | purified compound, added: GLP-1(9-36) at EC20 | 1390 ± 44
NCC(c1ccc(O)cc1)c1ccc(Oc2ccccc2)cc1 (stereo not drawn) | Taar1 | cAMP production, agonist | HEK293 |  | > 10000
COc1ccc(NC(=O)CN2CCCN(S(=O)(=O)c3ccc(Cl)cc3)CC2)c(OC)c1 | GRM4 | calcium mobilization, positive allosteric modulator | CHO cells with Gqi5 | added: glutamate EC20 | 4100 ± 600
Cc1nc(-c2ccc(OCC(C)C)c(C#N)c2)sc1C(=O)N1CCC(F)(F)CC1 | Grm2 (Rattus norvegicus, UniProt P31421) | thallium flux, positive allosteric modulator | HEK293 GIRK | added: glutamate EC20 | 2400

Some of these lines once more:
Structure (SMILES) | target | assay | system | setting | EC50 [nM]
CC(C)(Cn1cc(CN[C@@H]2CCc3ccccc32)nn1)c1c[nH]c2ccccc12 | GLP1R | cAMP accumulation, positive allosteric modulator, HTRF | CHO-K1 expressing GLP1R | crude reaction product, added: GLP-1(9-36) at EC20 | 1050
Cc1c(=O)n(C)c(Nc2ccc(I)cc2F)c2c(=O)n(C3CC3)c(=O)n(-c3cccc(NC(=O)CCOCCOCCNC(=O)CCC4=[N+]5C(=Cc6ccc(-c7ccc[nH]7)n6[B-]5(F)F)C=C4)c3)c12 | MAP2K1 (Homo sapiens, UniProt Q02750, S218A/S222A) | binding, NanoBRET | HEK-293T | MEK1 S218A/S222A NanoLuc fusion | 22 ± 2
Cc1nc2ccc(S(=O)(=O)n3nc(CCc4ccc(Cl)cc4)nc3N)cc2o1 | Lysophospholipase-like protein 1 | enzyme activity, activator, gel-based ABPP, FP-rhodamine | purified protein |  | 6500
CSc1cc(NC(=O)c2ccccn2)ccc1Cl | Metabotropic glutamate receptor 6 (Homo sapiens, UniProt O15303) | agonist |  |  | > 30000
CNc1nc(C#Cc2ccc(Cl)s2)nc2c1ncn2[C@H]1[C@H](O)[C@H](O)[C@]2(C(=O)OC(C)C)C[C@H]12 | SLC6A3 (Homo sapiens, UniProt Q01959) |  |  |  | 470
CC(C)(Cn1cc(-c2ccc(S(C)(=O)=O)cc2)nn1)c1c[nH]c2ccccc12 | GLP1R | cAMP accumulation, positive allosteric modulator, HTRF | CHO-K1 expressing GLP1R | crude reaction product, added: GLP-1(9-36) at EC20 | 1460
